Assay results collected from several papers.
Transmembrane protease serine 6: Transmembrane protease serine 6 (Homo sapiens, UniProt Q8IU80)
Sequence of UniProt Q8IU80 (whole entry, looked up): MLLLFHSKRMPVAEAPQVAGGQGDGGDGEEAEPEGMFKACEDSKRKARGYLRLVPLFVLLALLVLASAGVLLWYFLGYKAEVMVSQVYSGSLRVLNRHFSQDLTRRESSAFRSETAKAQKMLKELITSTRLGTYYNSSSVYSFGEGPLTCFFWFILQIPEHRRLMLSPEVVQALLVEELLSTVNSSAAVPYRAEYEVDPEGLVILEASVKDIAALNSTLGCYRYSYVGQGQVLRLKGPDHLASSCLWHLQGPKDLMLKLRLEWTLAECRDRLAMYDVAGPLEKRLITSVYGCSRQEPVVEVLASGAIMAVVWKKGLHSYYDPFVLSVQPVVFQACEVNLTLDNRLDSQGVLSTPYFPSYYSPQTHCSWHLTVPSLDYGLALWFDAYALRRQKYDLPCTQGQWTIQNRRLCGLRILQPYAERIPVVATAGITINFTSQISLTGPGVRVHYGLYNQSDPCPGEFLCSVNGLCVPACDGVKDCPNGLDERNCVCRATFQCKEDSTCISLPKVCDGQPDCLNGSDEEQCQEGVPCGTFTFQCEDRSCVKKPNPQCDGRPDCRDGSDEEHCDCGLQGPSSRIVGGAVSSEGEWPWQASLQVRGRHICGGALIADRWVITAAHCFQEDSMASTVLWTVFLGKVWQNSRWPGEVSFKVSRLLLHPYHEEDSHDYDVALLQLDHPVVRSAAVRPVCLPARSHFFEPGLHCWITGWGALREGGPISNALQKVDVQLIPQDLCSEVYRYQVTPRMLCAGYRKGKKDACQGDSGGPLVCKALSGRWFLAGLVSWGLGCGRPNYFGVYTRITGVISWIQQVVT
CTSL: Procathepsin L (CTSL, Homo sapiens, UniProt P07711)
Sequence of UniProt P07711 (whole entry, looked up): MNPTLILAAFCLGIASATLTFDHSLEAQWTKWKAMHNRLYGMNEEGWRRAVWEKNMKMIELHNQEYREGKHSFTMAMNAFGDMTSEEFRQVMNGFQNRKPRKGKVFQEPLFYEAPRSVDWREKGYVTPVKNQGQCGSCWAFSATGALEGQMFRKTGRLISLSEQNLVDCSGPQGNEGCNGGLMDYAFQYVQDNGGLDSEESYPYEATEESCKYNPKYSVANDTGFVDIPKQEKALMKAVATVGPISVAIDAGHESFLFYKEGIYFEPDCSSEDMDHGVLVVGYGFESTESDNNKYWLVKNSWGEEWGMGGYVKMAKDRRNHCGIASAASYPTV
GSK3B: Glycogen synthase kinase-3 beta (GSK3B, Homo sapiens, UniProt P49841)
Sequence of UniProt P49841 (whole entry, looked up): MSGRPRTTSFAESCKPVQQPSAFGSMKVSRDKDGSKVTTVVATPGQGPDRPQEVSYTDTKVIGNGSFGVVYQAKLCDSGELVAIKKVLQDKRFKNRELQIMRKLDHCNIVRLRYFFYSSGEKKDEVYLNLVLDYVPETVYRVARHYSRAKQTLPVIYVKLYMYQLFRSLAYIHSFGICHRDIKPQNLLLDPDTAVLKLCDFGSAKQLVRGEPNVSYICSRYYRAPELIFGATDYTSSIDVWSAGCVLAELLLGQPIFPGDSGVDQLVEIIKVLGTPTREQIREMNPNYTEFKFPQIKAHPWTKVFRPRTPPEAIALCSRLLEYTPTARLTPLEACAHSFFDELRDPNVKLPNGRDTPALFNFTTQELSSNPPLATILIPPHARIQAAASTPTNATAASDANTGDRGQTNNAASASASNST
MPO: Myeloperoxidase (MPO, Homo sapiens, UniProt P05164)
Sequence of UniProt P05164 (whole entry, looked up): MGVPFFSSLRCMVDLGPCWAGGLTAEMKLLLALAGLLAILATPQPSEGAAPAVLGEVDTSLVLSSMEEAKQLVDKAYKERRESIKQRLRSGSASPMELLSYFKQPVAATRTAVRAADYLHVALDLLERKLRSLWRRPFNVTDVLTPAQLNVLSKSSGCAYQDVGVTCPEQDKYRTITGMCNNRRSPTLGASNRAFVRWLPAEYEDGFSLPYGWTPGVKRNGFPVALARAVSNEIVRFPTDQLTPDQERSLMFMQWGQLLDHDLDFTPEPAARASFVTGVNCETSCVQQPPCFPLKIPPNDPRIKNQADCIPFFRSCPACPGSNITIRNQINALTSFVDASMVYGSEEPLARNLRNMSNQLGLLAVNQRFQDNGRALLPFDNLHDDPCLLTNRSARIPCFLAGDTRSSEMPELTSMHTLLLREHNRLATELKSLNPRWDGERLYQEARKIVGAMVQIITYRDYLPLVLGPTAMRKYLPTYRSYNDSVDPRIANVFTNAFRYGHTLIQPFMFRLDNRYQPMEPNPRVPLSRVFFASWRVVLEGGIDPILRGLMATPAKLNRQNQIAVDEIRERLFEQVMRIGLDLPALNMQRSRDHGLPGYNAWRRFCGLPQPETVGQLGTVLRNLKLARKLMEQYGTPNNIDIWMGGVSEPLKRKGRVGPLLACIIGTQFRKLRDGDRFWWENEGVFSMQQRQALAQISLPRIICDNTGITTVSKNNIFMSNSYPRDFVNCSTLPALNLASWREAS
ST14: Suppressor of tumorigenicity 14 protein (ST14, Homo sapiens, UniProt Q9Y5Y6)
Sequence of UniProt Q9Y5Y6 (whole entry, looked up): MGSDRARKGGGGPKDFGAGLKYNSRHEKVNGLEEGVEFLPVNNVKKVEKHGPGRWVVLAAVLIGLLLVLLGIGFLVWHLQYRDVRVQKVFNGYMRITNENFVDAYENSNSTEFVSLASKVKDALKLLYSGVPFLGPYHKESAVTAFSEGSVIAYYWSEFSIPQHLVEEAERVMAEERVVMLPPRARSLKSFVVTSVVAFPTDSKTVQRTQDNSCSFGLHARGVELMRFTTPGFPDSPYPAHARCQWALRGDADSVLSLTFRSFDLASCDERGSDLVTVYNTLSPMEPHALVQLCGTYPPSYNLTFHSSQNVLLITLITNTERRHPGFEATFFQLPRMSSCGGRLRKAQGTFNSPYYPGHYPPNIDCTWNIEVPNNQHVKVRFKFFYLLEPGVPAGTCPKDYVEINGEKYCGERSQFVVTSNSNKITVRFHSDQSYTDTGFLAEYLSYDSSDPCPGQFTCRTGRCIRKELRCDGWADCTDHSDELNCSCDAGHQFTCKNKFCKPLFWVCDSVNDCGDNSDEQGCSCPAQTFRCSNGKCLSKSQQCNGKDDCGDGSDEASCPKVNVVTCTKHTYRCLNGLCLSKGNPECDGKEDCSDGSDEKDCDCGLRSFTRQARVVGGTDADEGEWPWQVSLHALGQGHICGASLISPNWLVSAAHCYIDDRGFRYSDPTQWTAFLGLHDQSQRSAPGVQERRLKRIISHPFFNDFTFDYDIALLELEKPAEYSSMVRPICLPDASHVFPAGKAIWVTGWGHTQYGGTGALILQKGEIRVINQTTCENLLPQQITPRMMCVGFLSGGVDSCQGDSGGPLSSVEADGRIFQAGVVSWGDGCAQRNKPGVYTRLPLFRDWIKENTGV
Sequence of UniProt P06239 (whole entry, looked up): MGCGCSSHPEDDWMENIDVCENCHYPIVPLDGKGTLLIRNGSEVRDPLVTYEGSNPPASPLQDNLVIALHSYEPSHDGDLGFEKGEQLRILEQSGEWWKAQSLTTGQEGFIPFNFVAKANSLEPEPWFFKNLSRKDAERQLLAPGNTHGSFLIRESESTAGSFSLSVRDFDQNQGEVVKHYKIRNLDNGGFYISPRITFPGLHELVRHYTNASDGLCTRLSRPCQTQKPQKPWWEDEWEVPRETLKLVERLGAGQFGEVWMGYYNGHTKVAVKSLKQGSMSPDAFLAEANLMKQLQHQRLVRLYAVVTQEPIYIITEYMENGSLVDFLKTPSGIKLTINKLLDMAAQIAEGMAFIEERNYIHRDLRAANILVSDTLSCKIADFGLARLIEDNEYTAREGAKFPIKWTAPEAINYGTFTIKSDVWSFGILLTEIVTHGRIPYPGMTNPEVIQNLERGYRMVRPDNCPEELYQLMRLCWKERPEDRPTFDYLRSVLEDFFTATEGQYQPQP
Sequence of UniProt P18089 (whole entry, looked up): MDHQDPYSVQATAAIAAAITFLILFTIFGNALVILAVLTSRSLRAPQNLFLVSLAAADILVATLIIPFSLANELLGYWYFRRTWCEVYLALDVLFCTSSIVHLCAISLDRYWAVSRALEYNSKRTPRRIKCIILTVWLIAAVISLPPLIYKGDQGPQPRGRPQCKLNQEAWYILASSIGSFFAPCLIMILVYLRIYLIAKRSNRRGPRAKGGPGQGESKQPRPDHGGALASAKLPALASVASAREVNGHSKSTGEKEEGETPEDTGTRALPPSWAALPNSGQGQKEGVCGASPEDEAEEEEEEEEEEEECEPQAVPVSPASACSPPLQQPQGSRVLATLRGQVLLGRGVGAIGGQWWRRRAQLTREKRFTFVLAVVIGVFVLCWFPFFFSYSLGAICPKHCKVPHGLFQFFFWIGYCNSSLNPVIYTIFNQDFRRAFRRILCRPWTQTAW
Sequence of UniProt P15735 (whole entry, looked up): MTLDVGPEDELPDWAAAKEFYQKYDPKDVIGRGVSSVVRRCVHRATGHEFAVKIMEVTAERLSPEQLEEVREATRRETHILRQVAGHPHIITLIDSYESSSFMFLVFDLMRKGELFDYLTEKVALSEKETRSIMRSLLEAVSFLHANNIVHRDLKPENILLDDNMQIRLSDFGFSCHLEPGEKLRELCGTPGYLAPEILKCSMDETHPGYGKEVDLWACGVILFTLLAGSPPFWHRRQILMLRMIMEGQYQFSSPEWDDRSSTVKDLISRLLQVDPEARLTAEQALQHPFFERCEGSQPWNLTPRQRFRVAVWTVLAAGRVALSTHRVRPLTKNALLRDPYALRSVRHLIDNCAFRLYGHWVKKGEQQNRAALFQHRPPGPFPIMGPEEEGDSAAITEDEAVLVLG
Sequence of UniProt Q9BY41 (whole entry, looked up): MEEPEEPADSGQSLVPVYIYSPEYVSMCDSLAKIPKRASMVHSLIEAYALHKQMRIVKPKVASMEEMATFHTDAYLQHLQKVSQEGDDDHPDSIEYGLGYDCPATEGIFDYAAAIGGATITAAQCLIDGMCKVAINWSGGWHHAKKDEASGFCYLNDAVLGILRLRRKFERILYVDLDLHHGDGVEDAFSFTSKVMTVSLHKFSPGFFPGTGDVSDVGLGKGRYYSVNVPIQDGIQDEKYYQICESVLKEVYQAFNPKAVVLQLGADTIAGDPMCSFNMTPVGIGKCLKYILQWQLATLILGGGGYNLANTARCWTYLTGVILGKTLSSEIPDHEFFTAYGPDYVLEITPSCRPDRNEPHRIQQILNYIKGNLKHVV

N=C(N)NCCC[C@H](NC(=O)[C@H](Cc1cccc2ccccc12)NC(=O)[C@H](Cc1cscn1)NC(=O)CCc1ccccc1)C(=O)c1nc2ccccc2s1 — remaining activity (Transmembrane protease serine 6; enzyme activity, inhibitor; 0.1 µM): 5%
COc1ccc(C=CC=O)cc1 — remaining activity (CTSL; enzyme activity, inhibitor; 100 µM): 122%
CC[C@H](C)[C@H](NC(=O)[C@H](CCC(N)=O)NC(=O)[C@H](CC(C)C)NC(=O)[C@H](CCSC)NC(=O)[C@H](CCCCN)NC(=O)[C@H](CO)NC(=O)[C@H](CO)NC(=O)[C@H](CCSC)NC(=O)[C@H](CC(C)C)NC(=O)[C@H](CC(N)=O)NC(=O)[C@@H](NC(=O)[C@@H](NC(=O)[C@H](CO)NC(=O)[C@H](CC(C)C)NC(=O)[C@H](CS)NC(=O)[C@H](CCCNC(=N)N)NC(=O)[C@H](CC(=O)O)NC(=O)[C@H](Cc1c[nH]c2ccccc12)NC(=O)[C@H](Cc1ccccc1)NC(=O)[C@H](C)NC(=O)[C@H](CCC(=O)O)NC(=O)[C@@H](N)CCCCN)C(C)C)[C@@H](C)CC)C(=O)N[C@@H](CC(N)=O)C(=O)N[C@@H](C)C(=O)O — remaining activity (GSK3B; enzyme activity, inhibitor, radiometric; 250 µM, 20 min): 119%
CCCCC(=O)Nc1ccc(-c2ccc3ncn(CCC)c(=O)c3c2)cn1 — remaining binding (MAPK13 (Homo sapiens, UniProt O15264); binding, competition with immobilised ligand; 0.5 µM): 70%
Cc1cc(Oc2ncccc2CN2CCN(c3cc(Cl)cc(Cl)c3)CC2)ccc1-c1c(C)c(=O)[nH]c(=O)n1C — Ki (ADRA2B (Homo sapiens, UniProt P18089); ligand displacement, radioligand): 0.804 µM
CS(=O)(=NC#N)c1ccccc1Nc1nc(Nc2ccc(CO)nc2)ncc1Cl (stereo not shown) — remaining activity (LCK (Homo sapiens, UniProt P06239); enzyme activity, inhibitor; 1 µM): 35.8%
Oc1ccc(C2COc3cc(O)ccc3C2)cc1 (stereo not shown) — remaining activity (CTSL; enzyme activity, inhibitor; 100 µM): 112%
NC/C(=C\F)COc1cccc(Cn2c(=S)[nH]c(=O)c3[nH]cnc32)c1 — remaining activity (MPO; enzyme activity, inhibitor; 0.156 µM): 72.8%
C=CC(=O)N1CCC(COCC(=O)N2CCN(c3nc(-c4cnc(N)nc4C(F)F)nc(N4CCOC[C@@H]4C)n3)CC2)CC1 — remaining binding (PHKG2 (Homo sapiens, UniProt P15735); binding, competition with immobilised ligand; 1 µM): 100%
COc1cc(-c2cncc3c2CN(C)Cc2cc(N4CCNCC4)ccc2-3)cc(OC)c1OC — remaining activity (IKBKE (Homo sapiens, UniProt Q14164); enzyme activity, inhibitor; 1 µM): 102%
CC(=O)Nc1ccc(Oc2nnc(-c3ccc(Cl)cc3)c3ccccc23)cc1 — cell death (MCF7; cell growth or viability, MTT; 0.625 µM): 95.1%
C1=C/COCc2cc(ccc2OCCN2CCCC2)Nc2nccc(n2)-c2cccc(c2)COC/1 — remaining binding (EGFR (Homo sapiens, UniProt P00533, L861Q); binding; 0.1 µM): 83%
O=c1oc2cc(O)ccc2c2ccc(O)cc12 — remaining activity (CTSL; enzyme activity, inhibitor; 100 µM): 65.8%
CN(O)N=Nc1ccc(S(=O)(=O)Nc2nccs2)cc1 — inhibition (ABTS scavenging; 20 µg/mL): 29.7%
Cc1cc([C@@H](C)Nc2ccccc2C(=O)O)c2nc(N3CCC(F)(F)CC3)c(C#N)c(=O)n2c1 — remaining activity (SPHK2 (Homo sapiens, UniProt Q9NRA0); enzyme activity, inhibitor, ADP detection; 10 µM): 107%
COc1ccc(Cl)cc1-c1cc(=O)[nH]c(=S)n1CC(N)=O — remaining activity (MPO; enzyme activity, inhibitor; 5 µM): 7.82%
CC(C)(C)c1ccc(OS(=O)(=O)Oc2cc(F)cc(C(=O)NO)c2)cc1 — Ki (HDAC8 (Homo sapiens, UniProt Q9BY41); enzyme activity, inhibitor, fluorescence): 6.22 µM
CC[C@H](C)[C@H](NC(=O)[C@H](CCC(N)=O)NC(=O)[C@@H](NC(=O)[C@H](CCSC)NC(=O)[C@H](CCCCN)NC(=O)[C@H](CO)NC(=O)[C@@H](NC(=O)[C@H](CCSC)NC(=O)[C@H](CC(C)C)NC(=O)[C@H](CC(N)=O)NC(=O)[C@@H](NC(=O)[C@@H](NC(=O)[C@H](CO)NC(=O)[C@H](CC(C)C)NC(=O)[C@H](C)NC(=O)[C@H](CCCNC(=N)N)NC(=O)[C@H](CCC(=O)O)NC(=O)[C@H](Cc1ccc(O)cc1)NC(=O)[C@H](Cc1ccccc1)NC(=O)[C@H](C)NC(=O)[C@H](CC(N)=O)NC(=O)[C@@H](N)CCCCN)[C@@H](C)CC)[C@@H](C)CC)[C@@H](C)O)C(C)C)C(=O)N[C@@H](CC(N)=O)C(=O)N[C@H](C(=O)O)C(C)C — remaining activity (GSK3B; enzyme activity, inhibitor, radiometric; 50 µM, 20 min): 106%
COc1cc(O)c(C(=O)/C=C/c2ccccc2)c(OC)c1 — remaining activity (CTSL; enzyme activity, inhibitor; 100 µM): 7.19%
N=C(N)NCCC[C@H](NC(=O)[C@H](CCc1ccccc1)NC(=O)[C@H](Cc1cscn1)NC(=O)CCc1ccccc1)C(=O)c1nc2ccccc2s1 — remaining activity (ST14; enzyme activity, inhibitor; 0.1 µM): 2%
CC(CCC1(O)OC2CC3C4CC=C5CC(OC6OC(CO)C(OC7OC(C)C(O)C(O)C7O)C(O)C6OC6OC(C)C(O)C(O)C6O)CCC5(C)C4CCC3(C)C2C1C)COC1OC(CO)C(O)C(O)C1O (stereo not shown) — remaining activity (CTSL; enzyme activity, inhibitor; 100 µM): 119%
CCCN(O)N=Nc1ccc(S(=O)(=O)Nc2onc(C)c2C)cc1 — inhibition (ABTS scavenging; 20 µg/mL): 16%
CNc1ncc2c(/C=C/C(=O)N3CCC(OC)CC3)nn(Cc3cccc(C(F)(F)F)c3)c2n1 — remaining activity (DCLK2 (Homo sapiens, UniProt Q8N568); enzyme activity, inhibitor, radiometric; 1 µM): 88%
O=CCc1ccccc1 — remaining activity (CTSL; enzyme activity, inhibitor; 100 µM): 6.73%
N=C(N)NCCC[C@H](NC(=O)C1(NC(=O)[C@H](Cc2cscn2)NC(=O)CCc2ccccc2)CCCC1)C(=O)c1nc2ccccc2s1 — remaining activity (Transmembrane protease serine 6; enzyme activity, inhibitor; 0.1 µM): 86%
CC(=NNC(N)=S)c1ccc(Nc2nnc(-c3ccc(Cl)cc3)c3ccccc23)cc1 — cell death (MCF7; cell growth or viability, MTT; 0.312 µM): 93.2%
NS(=O)(=O)c1ccc(CNc2nc(Nc3cccc(CN4CCOCC4)c3)ncc2Br)cc1 — remaining activity (STK17B (Homo sapiens, UniProt O94768); enzyme activity, inhibitor, radiometric; 1 µM): 39%
CC[C@H](C)[C@H](NC(=O)[C@H](Cc1cscn1)NC(=O)CCc1ccccc1)C(=O)N[C@@H](CCCNC(=N)N)C(=O)c1nc2ccccc2s1 — remaining activity (ST14; enzyme activity, inhibitor; 0.1 µM): 8%

For quick reference, copied from above:
Cc1cc(Oc2ncccc2CN2CCN(c3cc(Cl)cc(Cl)c3)CC2)ccc1-c1c(C)c(=O)[nH]c(=O)n1C — Ki (ADRA2B (Homo sapiens, UniProt P18089); ligand displacement, radioligand): 0.804 µM
CS(=O)(=NC#N)c1ccccc1Nc1nc(Nc2ccc(CO)nc2)ncc1Cl (stereo not shown) — remaining activity (LCK (Homo sapiens, UniProt P06239); enzyme activity, inhibitor; 1 µM): 35.8%
Oc1ccc(C2COc3cc(O)ccc3C2)cc1 (stereo not shown) — remaining activity (CTSL; enzyme activity, inhibitor; 100 µM): 112%
NC/C(=C\F)COc1cccc(Cn2c(=S)[nH]c(=O)c3[nH]cnc32)c1 — remaining activity (MPO; enzyme activity, inhibitor; 0.156 µM): 72.8%
